Assay results pooled from the literature.
Parts stem from different laboratories: compare values within a part only. Substitutions count along the parent as printed.

Set 1
Target: CCNB2, cyclin fold, Cln2 fusion (human)
Technique: yeast growth competition, sequencing
Matrix: yeast
Setting: weak parent motif
Relative to: not given
Reading: higher = stronger binding
Starting sequence: RBL2 docking peptide (human); STTRRRLFVENDS; partner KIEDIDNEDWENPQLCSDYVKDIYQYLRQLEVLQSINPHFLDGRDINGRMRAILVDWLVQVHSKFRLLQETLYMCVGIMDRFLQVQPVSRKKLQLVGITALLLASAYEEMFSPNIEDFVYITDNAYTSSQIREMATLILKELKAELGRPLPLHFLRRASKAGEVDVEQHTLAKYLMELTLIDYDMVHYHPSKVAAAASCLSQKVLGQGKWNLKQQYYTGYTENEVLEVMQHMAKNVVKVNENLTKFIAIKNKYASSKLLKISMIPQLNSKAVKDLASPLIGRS
| Substitution | normalised enrichment score |
| --- | --- |
| N11Y | 0.495 |
| S1E | -0.0788 |
| D12V | 0.0767 |
| T3V | 1.59 |
| R5N | 0.0548 |
| T2R | 0.0439 |
| N11I | 0.274 |
| S13D | 0.924 |
| T3P | 0.431 |
| F8A | 0.00227 |
| R6H | 0.152 |
| L7T | 0.207 |
| S13Y | 0.598 |
| L7C | 0.28 |
| R4D | -1.06 |
| V9P | -0.265 |
| R5A L7A | 0.0992 |
| L7I | 0.425 |
| F8W | 0.318 |
| D12I | 0.751 |
| F8N | 0.652 |
| S13P | 0.547 |
| S13H | 0.0964 |
| T2S | 0.143 |
| T2F | -0.517 |

Set 2
Target: ABI1, truncated, D143A, DHFR fusion (Arabidopsis thaliana)
Technique: DHFR PCA, deep sequencing
Matrix: yeast
Setting: methotrexate growth selection, single substitutions
With: (+)-ABA 0.11 µM
Relative to: wild-type fitted maximum
Reading: higher = stronger binding
Starting sequence: PYL1, truncated, DHFR fusion (Arabidopsis thaliana); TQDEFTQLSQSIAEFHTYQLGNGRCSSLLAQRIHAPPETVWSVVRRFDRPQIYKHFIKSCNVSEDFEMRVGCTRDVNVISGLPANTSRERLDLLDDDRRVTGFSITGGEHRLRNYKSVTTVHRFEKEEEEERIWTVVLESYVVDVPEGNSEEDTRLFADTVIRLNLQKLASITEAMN; partner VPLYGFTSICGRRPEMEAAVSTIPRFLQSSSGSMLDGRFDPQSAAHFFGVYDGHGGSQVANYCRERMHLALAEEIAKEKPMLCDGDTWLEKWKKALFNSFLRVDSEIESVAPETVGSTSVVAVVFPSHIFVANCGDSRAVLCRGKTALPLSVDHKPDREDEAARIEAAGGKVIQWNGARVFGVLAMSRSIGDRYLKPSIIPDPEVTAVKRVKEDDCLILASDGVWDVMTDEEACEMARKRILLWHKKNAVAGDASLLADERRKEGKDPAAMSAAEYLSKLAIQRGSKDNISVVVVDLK
| Substitution | relative binding score [%] |
| --- | --- |
| K58D | 0.446 |
| Q31Y | 1.37 |
| E109A | -2.1 |
| T17N | 6.67 |
| S117M | -6.35 |
| I133L | 30.4 |
| P146D | -0.504 |
| F15S | 4.52 |
| T154R | 0.13 |
| T135F | -7.19 |
| E139D | -7.41 |
| D92M | -3.51 |
| R113Y | 3.13 |
| G81T | 36.3 |
| M176Q | 17.6 |

Set 3
Target: RING finger protein unkempt homolog, zinc fingers 1-6, GST-SBP tag (UNK, Homo sapiens, UniProt Q9C0B0, residues 30-357)
Technique: RNA Bind-n-Seq
Form: RNA
Matrix: in vitro
Concentration: not given
Setting: RNA with constant flanks, ends assumed
Relative to: input RNA pool
Reading: higher = stronger binding
Constant ends, left off below: GGGAGUUCUACAGUCCGACGAUC … CAACAGAGGAUUGAGCAUCA
Residues (chain): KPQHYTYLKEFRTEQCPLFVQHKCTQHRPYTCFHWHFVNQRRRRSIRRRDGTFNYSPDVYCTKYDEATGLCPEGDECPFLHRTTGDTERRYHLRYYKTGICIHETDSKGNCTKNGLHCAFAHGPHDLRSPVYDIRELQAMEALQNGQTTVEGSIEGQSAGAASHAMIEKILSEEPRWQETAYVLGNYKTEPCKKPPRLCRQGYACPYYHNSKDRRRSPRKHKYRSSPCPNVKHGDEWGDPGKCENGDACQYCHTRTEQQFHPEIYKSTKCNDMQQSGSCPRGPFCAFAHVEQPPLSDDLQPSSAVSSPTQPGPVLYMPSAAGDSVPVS
| Strand | bound/input enrichment |
| --- | --- |
| AACCAAGGCAUUGCUCCUGUCCAAGUCUGUACUAAUCUCUUGAUCAAGCAGGUGAUUGAAGCCGCUUGUGGUUCACAUCAUUCGAUGGCUUUAGCAGCUGAUGGAGAGUUAUUUGCUUGG | 0.0958 ratio |
| UUGCUUUUCACAUCCAUUUCCCCUCCUUCCCAUGGGCAGAGGACCAGGCUGUAGGAAAUCCCGUUAUUUACAGGAACUUCAUCAUAAUUUGGAGGGAAGCUCUUGGAGCUGUGAGUUCUC | 0.511 ratio |
| UGUGGCCUCUCUGAAGAAAAAGCCGUAGAGAAAUUUGGGGAAGAAAAUAUUGAAGUUUACCACCGUUUCUUUUGGCCAUUGGAAUGGACAGUCCCAUCCCGGGAUAACAACAAAUGUUAU | 0.0718 ratio |
| GUCAUUCAUACCAUUCACACCUAAAGACUGAAUUUUAUCUGUUUUGAAAACGAACUUCUCCCGCUACACAGAAGUAACAAAAUAUGUUAGUCAGUUUUGUAUUUAGAAAUGUAUUGGUAG | 2.47 ratio |
| CAUGAAGAAAGAACAAUUUUGCCUAUGUCAAGAGCUUUCCGUGGUAAACACCUCUCUUUUACCGUUCGAUUUCCAAACCAGGGCAGGCAAGUAGAUGACUUGGAGGUUUGGUCUCAUACA | 0.186 ratio |
| UCCCUUUAUCCACAGUUUAUGUUUCAUUUAAGAAGAUCUUCUUUCCUGCAAGUUUUUAACAACCGUCCUGAUGAGAGUUCAUAUUAUCGUCACCAUUUUAUGCGUCAAGAUCUGACCCAG | 0.616 ratio |
| UGUACAAACCCCAUAACGCCCCUCUGCACACAGCCCGACCAAGUUAUUAAAGGGGGCGCCCGUAUUAUUCAGUGCCACAUCCUAAAUGACAAGCGACACAUAUUAACCAAAGAUACGAAU | 0.141 ratio |
| CCAACGUUAGAAGCAGCCUGGCCUCAUCUGCAGCUUGUUUAUGAAUUUUUCUUAAGAUUUUCCGAGUCUCCAGAUUUCCAACCCAAUAUAGCAAAGAAAUAUAUUGAUCAGAAGUUUGUA | 2.95 ratio |

Set 4
Target: Histone acetyltransferase KAT6A, both winged helices, GST fusion (KAT6A, Homo sapiens, UniProt Q92794, residues 1-181)
Technique: protein binding microarray
Form: double-stranded DNA, one strand shown
Matrix: in vitro
Concentration: not given
Setting: 8-mer, flanks averaged, mean of 2 arrays, mostly near background
Relative to: not given
Reading: higher = stronger binding
Target sequence (chain): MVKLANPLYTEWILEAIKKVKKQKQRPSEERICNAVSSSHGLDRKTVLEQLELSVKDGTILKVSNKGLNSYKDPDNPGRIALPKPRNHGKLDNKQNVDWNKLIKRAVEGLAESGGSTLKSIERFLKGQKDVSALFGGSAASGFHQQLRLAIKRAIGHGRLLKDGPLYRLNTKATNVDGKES
| Strand | E-score |
| --- | --- |
| GTACGTCA | -0.0782 |
| GACCTGAC | -0.163 |
| CAGCCAAA | -0.16 |
| AACTGACG | 0.0452 |
| CTCCCCTC | -0.231 |
| CCGATGTA | 0.0719 |
| AGTAAGTC | -0.0619 |
| AGACCATA | -0.103 |
| AGCCCCGG | 0.0516 |
| AGGACCGC | 0.262 |
| CGTGCAAG | 0.0973 |
| GCCCGGCC | 0.233 |
| CTGGATGA | -0.156 |
| ACATACCG | 0.171 |
| GATAGCCA | -0.159 |
| CGTCGCGC | 0.336 |
| ACCTGAAG | -0.144 |
| CAATTAGA | -0.18 |
| GATTCAAA | -0.0489 |

Mixed results
| Molecule | target | assay | test system | setting | scale | measurement | result |
| --- | --- | --- | --- | --- | --- | --- | --- |
| PhoQ, residues 284 288 289 292 302 303 AGGCYF | PhoP, residues 12 14 15 18 19 NIMAP (Escherichia coli, UniProt P23836) | Sort-seq, item: YFP reporter | E. coli | PhoQ-PhoP variant library, with: 10 µM Mg2+ | relative to: high Mg2+ state, higher = stronger signaling | fold induction | 2.91 |

A few entries again (set 4):
| Strand | E-score |
| --- | --- |
| CAGCCAAA | -0.16 |
| GATAGCCA | -0.159 |
| CGTGCAAG | 0.0973 |
| CCGATGTA | 0.0719 |
| AACTGACG | 0.0452 |
| CTGGATGA | -0.156 |
| AGCCCCGG | 0.0516 |
| GACCTGAC | -0.163 |
